# Results collected from several papers.
# A part holds a random share of what one study measured. “And” joins repeats or separate records; there may be more than shown. Substitutions count along the parent as printed.

# Study 1
# Partner: H2BC13 (Homo sapiens, UniProt Q99880)
# Method: cross-linking MS
# Setting: hits only
Substance,interaction screen
"H2AC7 (Homo sapiens, UniProt P20671)",cross-linked
"H2BC15 (Homo sapiens, UniProt Q99877)",cross-linked
"H2AZ1 (Homo sapiens, UniProt P0C0S5)",cross-linked
"H2BC21 (Homo sapiens, UniProt Q16778)",cross-linked
"HMGA1 (Homo sapiens, UniProt P17096)",cross-linked

# Study 2
# Target: inorganic phosphate, free oxyanion
# Method: microfluidic competitive inhibition
# Matrix: in vitro, cell-free expressed
# Concentration: not given
# Setting: derived from inhibition constants, unchanged parent 615000 nM
# Direction: lower = stronger binding
# Starting sequence: PafA, mature enzyme, eGFP fusion (Elizabethkingia meningoseptica, UniProt Q9KJX5); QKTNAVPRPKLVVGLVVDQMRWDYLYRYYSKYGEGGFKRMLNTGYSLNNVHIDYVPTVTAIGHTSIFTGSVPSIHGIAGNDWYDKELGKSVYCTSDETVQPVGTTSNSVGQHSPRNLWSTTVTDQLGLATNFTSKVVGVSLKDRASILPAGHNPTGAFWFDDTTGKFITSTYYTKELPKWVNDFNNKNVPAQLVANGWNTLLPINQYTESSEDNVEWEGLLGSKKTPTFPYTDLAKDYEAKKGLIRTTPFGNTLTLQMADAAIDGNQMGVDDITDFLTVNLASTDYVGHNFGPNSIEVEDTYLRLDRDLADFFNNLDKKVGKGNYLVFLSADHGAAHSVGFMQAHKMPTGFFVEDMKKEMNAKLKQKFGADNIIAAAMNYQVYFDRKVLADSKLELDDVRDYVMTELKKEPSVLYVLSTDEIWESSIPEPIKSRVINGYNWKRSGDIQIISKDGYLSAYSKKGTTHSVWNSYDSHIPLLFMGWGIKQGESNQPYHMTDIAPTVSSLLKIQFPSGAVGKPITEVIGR
Variant,phosphate dissociation constant
P493V,623 µM
K452V,507 µM
A78G,526 µM
T120G,442 µM
D213V,208 µM
G340V,585 µM
A370V,727 µM
R115G,589 µM
F313G,451 µM
Y459G,533 µM
T247V,605 µM
T155V,667 µM
E34G,600 µM
H333V,500 µM

# Study 3
# Target: CCND1, cyclin fold, Cln2 fusion (human)
# Method: yeast growth competition, sequencing
# Matrix: yeast
# Setting: strong parent motif
# Reference: not given
# Direction: higher = stronger binding
# Starting sequence: viral docking peptide; KGVKRKLFAEDSS
Variant,normalised enrichment score
KGVKRKLFHEDSS [A9H],0.673
KGVKRKLFTEDSS [A9T],1.38
KGVKRKLFAEDFS [S12F],1.34
KGVKRKLFANDSS [E10N],0.466
KGVKRKLFAELSS [D11L],0.0752
KGVKRKLFAEASS [D11A],0.771
KGVKRKLFACDSS [E10C],0.336
KGVKRKLFAEDWS [S12W],1.25
KGVKRKLEAEDSS [F8E],0.154
KGVKRKRFAEDSS [L7R],0.172
KGVKRKLFAEQSS [D11Q],0.471
KGVARKLFAEDSS [K4A],3.27
KGVKRKLFAEDSA [S13A],1.95

# Further values, each from its own experiment
Structure (SMILES),organism,test,system,setting,endpoint,result
CCOc1ccc(Nc2c3c(nc4ccccc24)CCC3)cc1,Leishmania donovani,parasite killing,"DD8, intracellular amastigotes","8 µM, 24 h",inhibition,60% and 34% and 36%

# For quick reference, copied from above (study 3):
Variant,normalised enrichment score
KGVKRKLEAEDSS [F8E],0.154
KGVKRKLFAEDFS [S12F],1.34
